Experimental data gathered from unrelated publications.
Each line is one published result; not all experiments were run side by side. “And” joins repeats or separate records; there may be more than shown. Numbers after ± are the reported error.
WD repeat-containing protein 91 WD40 domain, residues 392–747: WD repeat-containing protein 91, WD40 domain, residues 392–747 (Homo sapiens, UniProt A4D1P6)
Sequence of UniProt A4D1P6 (whole entry, looked up): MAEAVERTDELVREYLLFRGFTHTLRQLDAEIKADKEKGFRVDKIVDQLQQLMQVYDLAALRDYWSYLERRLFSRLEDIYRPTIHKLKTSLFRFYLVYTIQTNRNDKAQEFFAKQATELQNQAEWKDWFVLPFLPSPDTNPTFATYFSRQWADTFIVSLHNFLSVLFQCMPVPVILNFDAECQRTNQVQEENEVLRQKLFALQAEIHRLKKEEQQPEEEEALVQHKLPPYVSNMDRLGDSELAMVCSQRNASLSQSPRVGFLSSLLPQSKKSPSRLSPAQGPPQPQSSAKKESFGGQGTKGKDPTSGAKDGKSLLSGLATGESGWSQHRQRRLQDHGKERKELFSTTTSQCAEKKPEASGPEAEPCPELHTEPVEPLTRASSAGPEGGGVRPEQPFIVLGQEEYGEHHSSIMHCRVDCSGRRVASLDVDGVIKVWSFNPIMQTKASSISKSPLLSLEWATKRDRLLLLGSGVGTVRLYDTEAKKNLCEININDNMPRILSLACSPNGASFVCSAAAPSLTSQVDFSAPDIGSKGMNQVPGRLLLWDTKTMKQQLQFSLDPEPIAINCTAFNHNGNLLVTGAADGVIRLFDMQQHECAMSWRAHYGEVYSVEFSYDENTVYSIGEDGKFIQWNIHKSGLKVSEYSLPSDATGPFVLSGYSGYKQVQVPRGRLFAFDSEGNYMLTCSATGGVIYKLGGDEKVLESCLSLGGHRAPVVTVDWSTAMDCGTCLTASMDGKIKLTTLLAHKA
Genome polyprotein NS3 helicase domain: Genome polyprotein, NS3 helicase domain (Hepatitis C virus genotype 1b, UniProt Q9WMX2)
ESR1: Estrogen receptor (ESR1, Homo sapiens, UniProt P03372)
Sequence of UniProt P03372 (whole entry, looked up): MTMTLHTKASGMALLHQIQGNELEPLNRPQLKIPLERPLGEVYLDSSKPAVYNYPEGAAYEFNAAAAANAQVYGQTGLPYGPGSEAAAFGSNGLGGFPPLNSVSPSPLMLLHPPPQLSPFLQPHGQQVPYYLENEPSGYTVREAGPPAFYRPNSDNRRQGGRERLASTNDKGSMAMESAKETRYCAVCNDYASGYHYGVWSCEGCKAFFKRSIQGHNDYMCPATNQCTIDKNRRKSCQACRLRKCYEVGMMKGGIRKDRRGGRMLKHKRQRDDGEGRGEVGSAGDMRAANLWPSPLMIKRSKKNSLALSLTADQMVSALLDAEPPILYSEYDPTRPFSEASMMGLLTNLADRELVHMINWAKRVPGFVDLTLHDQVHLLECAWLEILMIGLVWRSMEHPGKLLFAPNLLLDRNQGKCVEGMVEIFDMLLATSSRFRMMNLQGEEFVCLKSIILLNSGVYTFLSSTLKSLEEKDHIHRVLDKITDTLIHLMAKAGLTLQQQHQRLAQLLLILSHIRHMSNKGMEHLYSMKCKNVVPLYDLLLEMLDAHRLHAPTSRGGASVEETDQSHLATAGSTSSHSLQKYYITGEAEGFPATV
Sequence of UniProt P09327 (whole entry, looked up): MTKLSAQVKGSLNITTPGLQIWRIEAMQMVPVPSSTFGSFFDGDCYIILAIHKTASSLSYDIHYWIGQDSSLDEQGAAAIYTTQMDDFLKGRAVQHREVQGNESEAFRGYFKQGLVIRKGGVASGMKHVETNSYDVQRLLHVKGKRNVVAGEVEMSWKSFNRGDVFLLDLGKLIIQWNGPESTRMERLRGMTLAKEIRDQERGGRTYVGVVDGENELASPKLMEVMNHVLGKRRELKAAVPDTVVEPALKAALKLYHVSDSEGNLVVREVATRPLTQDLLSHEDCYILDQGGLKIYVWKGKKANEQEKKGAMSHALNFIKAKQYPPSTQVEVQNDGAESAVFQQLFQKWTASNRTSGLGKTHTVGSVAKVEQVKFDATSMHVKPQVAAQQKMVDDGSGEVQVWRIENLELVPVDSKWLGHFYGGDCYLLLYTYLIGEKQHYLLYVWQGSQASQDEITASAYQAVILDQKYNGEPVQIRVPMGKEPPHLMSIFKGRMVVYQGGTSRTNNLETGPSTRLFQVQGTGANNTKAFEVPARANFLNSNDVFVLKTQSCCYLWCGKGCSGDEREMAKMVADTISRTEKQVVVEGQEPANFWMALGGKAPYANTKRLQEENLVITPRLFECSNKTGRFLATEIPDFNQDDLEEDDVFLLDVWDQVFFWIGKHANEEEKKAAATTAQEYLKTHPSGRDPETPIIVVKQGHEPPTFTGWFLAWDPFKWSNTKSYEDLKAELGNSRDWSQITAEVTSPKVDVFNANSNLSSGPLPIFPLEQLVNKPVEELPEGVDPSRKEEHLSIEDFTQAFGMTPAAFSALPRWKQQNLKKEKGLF
Sequence of UniProt Q9UH17 (whole entry, looked up): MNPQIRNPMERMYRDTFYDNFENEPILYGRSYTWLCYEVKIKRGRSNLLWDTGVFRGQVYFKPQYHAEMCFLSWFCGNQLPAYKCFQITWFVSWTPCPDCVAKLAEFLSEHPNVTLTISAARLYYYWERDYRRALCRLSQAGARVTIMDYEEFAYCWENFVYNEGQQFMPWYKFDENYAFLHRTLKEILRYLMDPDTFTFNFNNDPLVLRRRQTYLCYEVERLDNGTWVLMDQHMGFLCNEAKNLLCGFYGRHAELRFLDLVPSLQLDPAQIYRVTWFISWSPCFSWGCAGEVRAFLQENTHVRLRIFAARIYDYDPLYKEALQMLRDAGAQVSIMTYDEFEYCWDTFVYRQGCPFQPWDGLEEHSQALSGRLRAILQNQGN
Sequence of UniProt P53355 (whole entry, looked up): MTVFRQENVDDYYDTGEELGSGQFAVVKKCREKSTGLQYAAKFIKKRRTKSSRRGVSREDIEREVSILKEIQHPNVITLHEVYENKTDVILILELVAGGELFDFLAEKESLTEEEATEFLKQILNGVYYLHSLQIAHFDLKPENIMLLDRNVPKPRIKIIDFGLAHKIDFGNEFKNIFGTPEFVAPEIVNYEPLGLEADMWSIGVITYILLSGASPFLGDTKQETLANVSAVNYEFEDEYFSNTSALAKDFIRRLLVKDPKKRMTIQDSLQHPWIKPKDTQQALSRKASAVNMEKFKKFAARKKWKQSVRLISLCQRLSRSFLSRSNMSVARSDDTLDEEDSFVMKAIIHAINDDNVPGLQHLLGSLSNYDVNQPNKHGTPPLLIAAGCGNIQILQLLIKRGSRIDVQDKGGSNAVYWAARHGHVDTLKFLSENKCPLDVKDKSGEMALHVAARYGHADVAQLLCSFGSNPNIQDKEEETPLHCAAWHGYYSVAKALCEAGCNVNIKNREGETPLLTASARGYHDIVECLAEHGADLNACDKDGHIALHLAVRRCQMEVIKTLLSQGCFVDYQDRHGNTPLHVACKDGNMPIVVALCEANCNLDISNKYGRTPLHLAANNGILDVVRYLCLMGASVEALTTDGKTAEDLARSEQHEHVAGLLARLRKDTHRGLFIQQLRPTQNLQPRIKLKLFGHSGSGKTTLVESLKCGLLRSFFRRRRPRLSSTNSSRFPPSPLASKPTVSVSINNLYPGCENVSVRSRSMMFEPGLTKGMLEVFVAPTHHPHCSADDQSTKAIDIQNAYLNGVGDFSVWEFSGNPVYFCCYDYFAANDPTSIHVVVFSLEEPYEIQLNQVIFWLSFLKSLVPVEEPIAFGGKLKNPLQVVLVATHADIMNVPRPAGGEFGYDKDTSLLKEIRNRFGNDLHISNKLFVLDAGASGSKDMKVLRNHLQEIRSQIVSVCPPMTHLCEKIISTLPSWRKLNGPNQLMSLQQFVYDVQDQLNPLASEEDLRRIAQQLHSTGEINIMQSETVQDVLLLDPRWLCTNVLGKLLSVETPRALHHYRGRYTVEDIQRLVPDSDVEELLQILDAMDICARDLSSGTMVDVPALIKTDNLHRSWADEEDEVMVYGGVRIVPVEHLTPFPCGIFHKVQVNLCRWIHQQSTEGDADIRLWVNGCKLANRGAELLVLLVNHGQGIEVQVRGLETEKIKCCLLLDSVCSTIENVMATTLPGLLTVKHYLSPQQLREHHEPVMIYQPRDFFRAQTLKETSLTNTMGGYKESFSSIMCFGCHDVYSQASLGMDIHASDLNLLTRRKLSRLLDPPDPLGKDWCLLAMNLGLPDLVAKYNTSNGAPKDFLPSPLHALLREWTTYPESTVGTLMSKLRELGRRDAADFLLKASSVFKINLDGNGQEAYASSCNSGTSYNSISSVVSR
Sequence of UniProt C7FF04 (whole entry, looked up): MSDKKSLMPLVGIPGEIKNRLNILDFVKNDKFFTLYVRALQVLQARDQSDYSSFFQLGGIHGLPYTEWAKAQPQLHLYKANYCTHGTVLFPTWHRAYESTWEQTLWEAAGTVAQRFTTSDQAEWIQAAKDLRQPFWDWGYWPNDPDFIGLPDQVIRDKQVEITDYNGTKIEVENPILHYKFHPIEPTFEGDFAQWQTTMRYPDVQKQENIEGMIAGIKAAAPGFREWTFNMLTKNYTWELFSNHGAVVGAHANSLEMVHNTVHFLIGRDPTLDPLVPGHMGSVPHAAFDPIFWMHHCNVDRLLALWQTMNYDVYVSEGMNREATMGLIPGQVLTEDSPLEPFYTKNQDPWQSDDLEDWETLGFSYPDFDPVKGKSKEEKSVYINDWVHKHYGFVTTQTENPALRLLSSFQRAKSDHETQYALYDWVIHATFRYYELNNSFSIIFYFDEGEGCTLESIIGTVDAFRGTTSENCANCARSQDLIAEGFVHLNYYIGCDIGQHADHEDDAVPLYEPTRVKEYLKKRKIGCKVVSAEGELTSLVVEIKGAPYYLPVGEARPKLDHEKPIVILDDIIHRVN
Sequence of UniProt Q93015 (whole entry, looked up): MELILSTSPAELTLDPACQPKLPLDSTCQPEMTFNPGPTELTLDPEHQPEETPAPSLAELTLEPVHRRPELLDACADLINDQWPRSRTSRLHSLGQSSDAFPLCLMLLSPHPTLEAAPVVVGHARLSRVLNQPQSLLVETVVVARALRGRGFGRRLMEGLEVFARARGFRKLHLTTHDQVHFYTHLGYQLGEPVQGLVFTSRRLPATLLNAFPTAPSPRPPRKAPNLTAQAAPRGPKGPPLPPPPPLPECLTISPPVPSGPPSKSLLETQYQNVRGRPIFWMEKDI

CC(C)(C)OC(=O)N1CCCC(c2ccc(C(=O)N3CCC(C#N)CC3)cc2)C1 (centres unmarked) — binding (WD repeat-containing protein 91 WD40 domain, residues 392–747; SPR; 45 µM): -9% and 11%
CC1(C)CC2(C)OC(=O)NC2(C)c2ccccc21 (centres unmarked) — fold enrichment (SPRY domain-containing SOCS box protein 2, SPRY domain (Homo sapiens, UniProt Q99619); binding, affinity selection mass spectrometry; baseline: other proteins in batch): 1.1
NC(=O)c1ccc2[nH]ccc2c1 — inhibition (Genome polyprotein NS3 helicase domain; DNA binding, inhibitor; hepatitis C virus; 100 µM, added: Cy5-dT15 DNA): 0%
COc1cc(/C=C2\CCC/C(=C\c3ccc(O)c(OC)c3)C2=O)ccc1O — binding stoichiometry (haemin; isothermal titration calorimetry; concentration not given, pH 7.4, 37 °C): 0.42 ± 0.01
COc1ccc(-c2cncc(C(=O)N[C@@H]3CCc4c(C#N)cccc43)c2)c(C)c1 — binding (WD repeat-containing protein 91 WD40 domain, residues 392–747; SPR; 45 µM): 80% and 78%
N[C@@H](CO)C(=O)O — product formation (N-alpha-acetyltransferase 80 (NAA80, Homo sapiens, UniProt Q93015); substrate, DTNB; 2 mM, 30 min, 37 °C, added: acetyl-CoA 500 µM): 3.24 µM
NCCCC(=O)O — inhibition (Genome polyprotein NS3 helicase domain; DNA binding, inhibitor; hepatitis C virus; 100 µM, added: Cy5-dT15 DNA): 0%
O=c1ccn([C@@H]2O[C@H](COP(=O)(O)OP(=O)(O)O)[C@@H](O)[C@H]2O)c(=O)[nH]1 — koff (ABO (Homo sapiens, UniProt P16442, G235S/G268A/L266M/R176G/W181M); methyl-TROSY NMR titration lineshape analysis; apo mutant enzyme): 1050 ± 60 s⁻¹
Nc1ncnc2c1ncn2[C@@H]1O[C@H](COP(=O)(O)CP(=O)(O)OP(=O)(O)O)[C@@H](O)[C@H]1O — calcium influx (P2X purinoceptor 1 (P2RX1, Homo sapiens, UniProt P51575, D170A); calcium influx; 31.6 µM; baseline: ionomycin response): 100%
CCCN1C[C@H](CSC)C[C@@H]2c3cccc4[nH]cc(c34)C[C@H]21 — activation (Glutamate receptor 2 (Homo sapiens, UniProt P42262); ion current, agonist, SyncroPatch patch clamp; HEK293; 30 µM): 3%
COc1cc(/C=C/c2ccc(O)cc2)cc(OC)c1 — ΔG of binding (O-methyltransferase (Sorghum bicolor, UniProt A0A1B6PFV1); concentration not given, added: SAM+): -7.26 kcal/mol
CCCc1cc(=O)oc2cc(OCc3cc(=O)c(O)co3)ccc12 — β-Turn content (PPO3 (Agaricus bisporus, UniProt C7FF04); secondary structure of tyrosinase, CD spectroscopy; molar ratio 1:1): 16.9%
CCCCS(=N)(=O)CCC(N)C(=O)O (racemic) — inhibition (Genome polyprotein NS3 helicase domain; DNA binding, inhibitor; hepatitis C virus; 100 µM, added: Cy5-dT15 DNA): 1%
CCC1(O)CCCN(C(=O)c2ccc(-c3ccc(F)c(NC(=O)CCl)c3)cc2)C1 (centres unmarked) — unmodified protein (DNA dC->dU-editing enzyme APOBEC-3B, C-terminal domain (Homo sapiens, UniProt Q9UH17); covalent adduct, intact protein MS; 3 h, 10-fold excess, 250 µM): 22% and 9%
O=C(Nc1cccc2c(=O)cc(-c3nnn[nH]3)oc12)c1ccc(OCCCCc2ccccc2)cc1 — Hill coefficient (Volume-regulated anion channel subunit LRRC8C, part LRRC8A IL1 chimera (LRRC8C, Homo sapiens, UniProt Q8TDW0); ion current, inhibitor, whole-cell patch clamp; HCT116 LRRC8 knockout, transfected; -100 mV, hypotonic swelling, normal ionic strength): 0.7
O=C1CC[C@H](N2Cc3c(ccc4c3OCC43CCN(C[C@@H]4CCC5(CCN(c6ccc([C@@H]7c8ccc(O)cc8CC[C@@H]7c7ccccc7)cc6)CC5)OC4)CC3)C2=O)C(=O)N1 — ER level reduction (ESR1; mouse, MCF7 xenograft; oral, 10 mg/kg daily for 3 days, 6 h; baseline: vehicle): 66 to 69%
CN1C(=O)C(c2c(-c3ccc(Cl)cc3)[nH]c3c2c(=O)[nH]c(=O)n3C)c2ccccc21 (centres unmarked) — SPR response (WD repeat-containing protein 91 (Homo sapiens, UniProt A4D1P6); binding, SPR steady state; 0.9375 µM): 9.99 RU
CC[C@H](NC(=O)c1c(C)c(-c2ccccc2)nc2ccccc12)c1ccccc1 — inhibition (Genome polyprotein NS3 helicase domain; DNA binding, inhibitor; hepatitis C virus; 100 µM, added: Cy5-dT15 DNA): 1%
O=C(COP(=O)(O)O)[C@@H](O)[C@H](O)[C@H](O)COP(=O)(O)O — thermal stability ratio (Villin-1 (Homo sapiens, UniProt P09327); thermal proteome profiling, refers to: VIL1; HepG2 cell lysate; concentration not given, 57 over 37 °C; baseline: compound over control): 0.464 and 0.6 and 0.85
O=c1cc(-c2ccc(O)cc2)oc2cc(O[C@@H]3O[C@H](CO)[C@@H](O)[C@H](O)[C@H]3O)cc(O)c12 — selectivity ratio (ESR1; array formation; PRL-HeLa; baseline: EC50 ERβ over EC50 ERα): 0.939
CSCC[C@H](NC(=O)[C@@H]1CCCN1C(C)=O)C(=O)N[C@@H](C)C(=O)N[C@@H](CO)C(=O)N[C@@H](CC(=O)O)C(=O)N1CCC[C@H]1C(=O)N[C@@H](CC(C)C)C(=O)NCC(=O)N[C@H](C(=O)N[C@H](C(=O)N[C@@H](CCCNC(=N)N)C(=O)N1CCC[C@H]1C(=O)N[C@@H](CCCNC(=N)N)C(=O)N[C@@H](C)C(=O)N[C@@H](CCCNC(=N)N)C(=O)N[C@@H](C)C(=O)NCCCC[C@H](NC(=O)[C@H](C)NC(=O)[C@H](CCCNC(=N)N)NC(=O)[C@H](C)NC(=O)[C@H](CCCNC(=N)N)NC(=O)[C@@H]1CCCN1C(=O)[C@H](CCCNC(=N)N)NC(=O)[C@@H](NC(=O)[C@@H](NC(=O)CNC(=O)[C@H](CC(C)C)NC(=O)[C@@H]1CCCN1C(=O)[C@H](CC(=O)O)NC(=O)[C@H](CO)NC(=O)[C@H](C)NC(=O)[C@H](CCSC)NC(=O)[C@@H]1CCCN1C(C)=O)C(C)C)C(C)C)C(=O)NCCC(=O)N[C@@H](CCCCNC(=O)CCOCCOCCOCCOCCNC(=O)CCCC[C@@H]1SC[C@@H]2NC(=O)N[C@@H]21)C(N)=O)C(C)C)C(C)C — binding (antibody 12CA5; biolayer interferometry; concentration not given, added: 12CA5 7.8-1000 nM): no binding
CC(C)OCCn1c(=S)[nH]c(=O)c2[nH]ccc21 — H2O2 concentration (Myeloperoxidase (MPO, Homo sapiens, UniProt P05164); H2O2 consumption, inhibitor, H2O2 electrode; 0.226 µM, 0.3 s): -0.595 µM
CC[C@H](C)[C@H](NC(=O)[C@H](CCC(=O)O)NC(=O)[C@H](CCC(=O)O)NC(=O)[C@@H]1CCCN1C(=O)[C@H](CC(=O)O)NC(=O)[C@H](C)NC(=O)[C@H](CCC(N)=O)NC(=O)[C@@H](NC(=O)[C@H](C)NC(=O)[C@@H](NC(=O)[C@H](CO)NC(=O)[C@@H](NC(=O)[C@H](CCCCN)NC(=O)[C@@H](N)Cc1ccc(O)cc1)[C@@H](C)O)C(C)C)[C@@H](C)O)C(=O)N[C@H](C(=O)N[C@H](C(=O)N[C@@H](CC(C)C)C(=O)N[C@@H](CC(=O)O)C(=O)N[C@@H](CC(=O)O)C(=O)N[C@@H](CC(=O)O)C(=O)N[C@@H](CC(=O)O)C(=O)O)C(C)C)[C@@H](C)CC — ΔG (Small ubiquitin-related modifier 2, N-terminally truncated (Homo sapiens, UniProt P61956, C48A); binding, ITC; pH 7.4, 298.15 K, N-terminally truncated protein): -8.6 ± 0.13 kcal/mol
CC[C@H](C)[C@H](NC(=O)[C@H](CCCCN)NC(=O)CNC(=O)[C@@H](NC(=O)[C@@H](NC(=O)[C@H](CCSC)NC(=O)[C@H](Cc1c[nH]cn1)NC(=O)CN)[C@@H](C)O)C(C)C)C(=O)N[C@@H](Cc1ccc(O)cc1)C(=O)N[C@@H](C)C(=O)N[C@@H](C)C(=O)N[C@@H](CCSC)C(=O)N[C@@H](CCSC)C(=O)N[C@H](C(=O)N[C@@H](CCSC)C(=O)N[C@@H](CCC(=O)O)C(=O)N[C@@H](Cc1ccc(O)cc1)C(=O)N[C@@H](Cc1ccc(O)cc1)C(=O)N[C@@H](CCCNC(=N)N)C(=O)N[C@@H](CCC(N)=O)C(=O)N[C@@H](CO)C(=O)N[C@@H](CCCCN)C(=O)N[C@@H](C)C(=O)N[C@@H](CCCCN)C(=O)N[C@@H](CCCCN)C(=O)N[C@@H](CC(C)C)C(=O)N[C@@H](CCC(N)=O)C(=O)N[C@@H](C)C(=O)N[C@@H](CCSC)C(=O)N[C@@H](CCCNC(=N)N)C(=O)O)[C@@H](C)CC — ΔS (Calmodulin-1, Ca2+-bound C-lobe (CALM1, Homo sapiens, UniProt P0DP23); binding, competition ITC; concentration not given, 15 °C, added: pre-formed Ca2+/N-lobe–CaV2.1 IQ complex): 49.2 ± 1.3 cal/(mol·K)
C=C1CCN([C@H](CC(C)C)C(=O)NCc2ccc(Cl)c(Cl)c2)S(=O)(=O)c2ccccc21 — kinase activity (DAPK1 (Homo sapiens, UniProt P53355); enzyme activity, inhibitor, ADP-Glo; 100 µM): no effect
Oc1cc(O)c2c(c1)O[C@H](c1cc(O)c(O)c(O)c1)[C@@H](O)C2 — selectivity ratio (ESR1; array formation; PRL-HeLa; baseline: EC50 ERβ over EC50 ERα): 1.25
CNC1(C)C2CCC(C2)C1(C)C (centres unmarked) — inhibition (Genome polyprotein NS3 helicase domain; DNA binding, inhibitor; hepatitis C virus; 100 µM, added: Cy5-dT15 DNA): 0%
CC(=O)NCc1ccccc1N1CCN(C(=O)c2cc3cccn3cn2)CC1 — binding (WD repeat-containing protein 91 WD40 domain, residues 392–747; SPR; 45 µM): -16% and -3%
Cc1nc(CSc2nc(SCc3ccc(C(C)C)cc3)nc(=O)[nH]2)cs1 — mean relaxed DNA (TOP2A (Homo sapiens, UniProt P11388); DNA relaxation; 62.5 µM): 99.6%

Repeated from above:
Nc1ncnc2c1ncn2[C@@H]1O[C@H](COP(=O)(O)CP(=O)(O)OP(=O)(O)O)[C@@H](O)[C@H]1O — calcium influx (P2X purinoceptor 1 (P2RX1, Homo sapiens, UniProt P51575, D170A); calcium influx; 31.6 µM; baseline: ionomycin response): 100%
COc1cc(/C=C/c2ccc(O)cc2)cc(OC)c1 — ΔG of binding (O-methyltransferase (Sorghum bicolor, UniProt A0A1B6PFV1); concentration not given, added: SAM+): -7.26 kcal/mol
O=C(COP(=O)(O)O)[C@@H](O)[C@H](O)[C@H](O)COP(=O)(O)O — thermal stability ratio (Villin-1 (Homo sapiens, UniProt P09327); thermal proteome profiling, refers to: VIL1; HepG2 cell lysate; concentration not given, 57 over 37 °C; baseline: compound over control): 0.464 and 0.6 and 0.85
Cc1nc(CSc2nc(SCc3ccc(C(C)C)cc3)nc(=O)[nH]2)cs1 — mean relaxed DNA (TOP2A (Homo sapiens, UniProt P11388); DNA relaxation; 62.5 µM): 99.6%
